Assay results from different studies.
Parts stem from different laboratories: compare values within a part only. “And” joins repeats or separate records; there may be more than shown.
Chain of UniProt Q04759 (whole entry, looked up): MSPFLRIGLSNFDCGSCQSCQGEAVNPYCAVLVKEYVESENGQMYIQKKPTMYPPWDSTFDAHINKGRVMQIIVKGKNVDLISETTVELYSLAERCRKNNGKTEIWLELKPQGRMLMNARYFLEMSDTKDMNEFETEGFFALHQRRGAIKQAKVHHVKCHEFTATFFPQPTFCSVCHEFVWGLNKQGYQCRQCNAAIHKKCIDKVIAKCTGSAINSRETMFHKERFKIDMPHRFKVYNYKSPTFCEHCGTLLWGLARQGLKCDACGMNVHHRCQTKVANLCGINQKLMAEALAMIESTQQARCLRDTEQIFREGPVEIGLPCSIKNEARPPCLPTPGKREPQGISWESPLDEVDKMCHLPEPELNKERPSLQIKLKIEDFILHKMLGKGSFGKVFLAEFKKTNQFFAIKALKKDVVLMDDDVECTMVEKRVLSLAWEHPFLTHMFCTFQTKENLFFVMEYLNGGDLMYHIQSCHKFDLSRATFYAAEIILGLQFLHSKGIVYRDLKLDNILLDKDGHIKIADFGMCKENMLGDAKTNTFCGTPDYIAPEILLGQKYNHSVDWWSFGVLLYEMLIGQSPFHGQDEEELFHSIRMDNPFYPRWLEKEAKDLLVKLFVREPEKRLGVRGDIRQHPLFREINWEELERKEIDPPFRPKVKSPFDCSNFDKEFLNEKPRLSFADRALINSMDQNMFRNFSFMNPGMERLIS
Chain of UniProt Q14012 (whole entry, looked up): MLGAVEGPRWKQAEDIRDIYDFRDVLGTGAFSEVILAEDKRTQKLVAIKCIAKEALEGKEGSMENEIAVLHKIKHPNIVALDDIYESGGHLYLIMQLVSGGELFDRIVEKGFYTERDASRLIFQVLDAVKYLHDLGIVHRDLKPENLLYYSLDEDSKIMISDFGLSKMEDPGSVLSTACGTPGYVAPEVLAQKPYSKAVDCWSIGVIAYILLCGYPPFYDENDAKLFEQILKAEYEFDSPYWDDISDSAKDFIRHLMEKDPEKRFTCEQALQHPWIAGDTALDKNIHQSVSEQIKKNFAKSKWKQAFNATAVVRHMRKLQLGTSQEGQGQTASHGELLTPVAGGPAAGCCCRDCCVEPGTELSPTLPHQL
Chain of UniProt P00519 (whole entry, unmodified, looked up): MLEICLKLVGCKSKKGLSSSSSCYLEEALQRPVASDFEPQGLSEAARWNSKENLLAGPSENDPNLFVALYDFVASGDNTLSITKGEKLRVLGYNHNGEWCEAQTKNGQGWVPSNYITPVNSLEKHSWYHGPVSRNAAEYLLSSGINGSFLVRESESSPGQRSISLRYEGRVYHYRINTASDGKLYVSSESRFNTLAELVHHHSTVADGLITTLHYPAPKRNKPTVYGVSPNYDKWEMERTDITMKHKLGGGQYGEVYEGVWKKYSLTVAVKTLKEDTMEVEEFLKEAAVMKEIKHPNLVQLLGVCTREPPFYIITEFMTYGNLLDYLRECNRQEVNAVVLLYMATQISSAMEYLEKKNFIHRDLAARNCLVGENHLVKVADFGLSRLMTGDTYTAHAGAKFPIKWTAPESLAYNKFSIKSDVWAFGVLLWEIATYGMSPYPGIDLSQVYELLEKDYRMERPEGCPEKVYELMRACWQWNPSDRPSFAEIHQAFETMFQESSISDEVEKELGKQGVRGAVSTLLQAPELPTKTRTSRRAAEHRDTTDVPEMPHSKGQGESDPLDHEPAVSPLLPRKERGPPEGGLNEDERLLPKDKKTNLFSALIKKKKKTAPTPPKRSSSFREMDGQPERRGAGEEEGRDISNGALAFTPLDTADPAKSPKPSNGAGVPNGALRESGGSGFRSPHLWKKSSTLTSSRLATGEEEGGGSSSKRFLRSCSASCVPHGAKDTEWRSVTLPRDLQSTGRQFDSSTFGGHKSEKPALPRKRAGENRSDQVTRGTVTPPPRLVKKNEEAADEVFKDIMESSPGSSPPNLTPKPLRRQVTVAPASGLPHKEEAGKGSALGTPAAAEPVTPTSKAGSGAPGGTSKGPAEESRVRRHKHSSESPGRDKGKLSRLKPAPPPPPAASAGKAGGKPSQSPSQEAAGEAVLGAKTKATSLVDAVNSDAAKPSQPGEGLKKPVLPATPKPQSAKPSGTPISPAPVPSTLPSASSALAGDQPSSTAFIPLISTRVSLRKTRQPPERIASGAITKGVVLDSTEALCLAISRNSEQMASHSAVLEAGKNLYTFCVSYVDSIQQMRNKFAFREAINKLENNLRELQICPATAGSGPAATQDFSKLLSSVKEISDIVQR
Chain of UniProt P49674 (whole entry, looked up): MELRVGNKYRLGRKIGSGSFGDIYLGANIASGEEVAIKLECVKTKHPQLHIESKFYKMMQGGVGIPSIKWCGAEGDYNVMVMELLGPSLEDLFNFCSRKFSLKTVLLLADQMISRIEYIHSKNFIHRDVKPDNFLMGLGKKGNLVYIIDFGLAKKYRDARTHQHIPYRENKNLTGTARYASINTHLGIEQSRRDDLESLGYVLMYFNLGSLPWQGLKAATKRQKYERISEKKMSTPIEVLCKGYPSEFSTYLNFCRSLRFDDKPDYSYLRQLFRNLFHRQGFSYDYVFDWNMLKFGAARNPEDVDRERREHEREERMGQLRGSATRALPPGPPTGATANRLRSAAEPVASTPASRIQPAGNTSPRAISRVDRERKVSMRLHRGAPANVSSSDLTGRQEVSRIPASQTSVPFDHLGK
Chain of UniProt Q06418 (whole entry, looked up): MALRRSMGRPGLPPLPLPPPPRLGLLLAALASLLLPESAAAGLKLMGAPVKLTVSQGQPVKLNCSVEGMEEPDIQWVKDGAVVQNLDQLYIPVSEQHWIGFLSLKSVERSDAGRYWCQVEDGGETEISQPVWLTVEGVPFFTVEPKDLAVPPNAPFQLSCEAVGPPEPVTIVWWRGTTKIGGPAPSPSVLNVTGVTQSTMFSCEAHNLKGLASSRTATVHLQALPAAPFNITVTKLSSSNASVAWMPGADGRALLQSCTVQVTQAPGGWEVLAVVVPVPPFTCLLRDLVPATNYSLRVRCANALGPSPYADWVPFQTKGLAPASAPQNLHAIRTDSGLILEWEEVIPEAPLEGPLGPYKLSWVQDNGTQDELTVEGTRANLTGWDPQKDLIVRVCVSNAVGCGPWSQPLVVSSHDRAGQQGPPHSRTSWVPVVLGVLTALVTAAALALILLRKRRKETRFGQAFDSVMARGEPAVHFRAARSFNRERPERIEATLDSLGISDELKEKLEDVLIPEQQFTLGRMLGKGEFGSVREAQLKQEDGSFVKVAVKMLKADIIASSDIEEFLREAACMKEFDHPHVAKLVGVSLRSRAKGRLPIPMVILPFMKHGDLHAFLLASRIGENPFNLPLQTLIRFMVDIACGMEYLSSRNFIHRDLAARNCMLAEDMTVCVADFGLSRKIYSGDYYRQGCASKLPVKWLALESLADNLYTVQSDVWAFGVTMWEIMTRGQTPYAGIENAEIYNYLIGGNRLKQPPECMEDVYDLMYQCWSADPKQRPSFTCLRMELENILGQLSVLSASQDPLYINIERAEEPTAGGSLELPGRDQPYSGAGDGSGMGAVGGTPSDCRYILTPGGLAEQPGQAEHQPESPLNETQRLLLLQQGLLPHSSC
Chain of UniProt Q13153 (whole entry, looked up): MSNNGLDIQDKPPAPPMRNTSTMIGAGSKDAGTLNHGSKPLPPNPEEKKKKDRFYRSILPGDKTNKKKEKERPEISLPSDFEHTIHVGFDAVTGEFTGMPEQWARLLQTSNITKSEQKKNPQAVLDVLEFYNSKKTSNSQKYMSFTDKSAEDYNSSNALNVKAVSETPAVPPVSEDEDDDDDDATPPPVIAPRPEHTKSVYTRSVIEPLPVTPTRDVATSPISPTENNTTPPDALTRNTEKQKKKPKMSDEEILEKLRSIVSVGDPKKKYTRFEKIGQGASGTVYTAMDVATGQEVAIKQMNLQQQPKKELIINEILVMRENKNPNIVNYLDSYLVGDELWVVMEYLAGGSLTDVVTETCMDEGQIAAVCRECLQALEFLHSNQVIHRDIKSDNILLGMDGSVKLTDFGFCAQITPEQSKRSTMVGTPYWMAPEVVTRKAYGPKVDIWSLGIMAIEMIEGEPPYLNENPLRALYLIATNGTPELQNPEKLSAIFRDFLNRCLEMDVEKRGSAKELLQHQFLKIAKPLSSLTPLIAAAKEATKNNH
Chain of UniProt Q9H0K1 (whole entry, looked up): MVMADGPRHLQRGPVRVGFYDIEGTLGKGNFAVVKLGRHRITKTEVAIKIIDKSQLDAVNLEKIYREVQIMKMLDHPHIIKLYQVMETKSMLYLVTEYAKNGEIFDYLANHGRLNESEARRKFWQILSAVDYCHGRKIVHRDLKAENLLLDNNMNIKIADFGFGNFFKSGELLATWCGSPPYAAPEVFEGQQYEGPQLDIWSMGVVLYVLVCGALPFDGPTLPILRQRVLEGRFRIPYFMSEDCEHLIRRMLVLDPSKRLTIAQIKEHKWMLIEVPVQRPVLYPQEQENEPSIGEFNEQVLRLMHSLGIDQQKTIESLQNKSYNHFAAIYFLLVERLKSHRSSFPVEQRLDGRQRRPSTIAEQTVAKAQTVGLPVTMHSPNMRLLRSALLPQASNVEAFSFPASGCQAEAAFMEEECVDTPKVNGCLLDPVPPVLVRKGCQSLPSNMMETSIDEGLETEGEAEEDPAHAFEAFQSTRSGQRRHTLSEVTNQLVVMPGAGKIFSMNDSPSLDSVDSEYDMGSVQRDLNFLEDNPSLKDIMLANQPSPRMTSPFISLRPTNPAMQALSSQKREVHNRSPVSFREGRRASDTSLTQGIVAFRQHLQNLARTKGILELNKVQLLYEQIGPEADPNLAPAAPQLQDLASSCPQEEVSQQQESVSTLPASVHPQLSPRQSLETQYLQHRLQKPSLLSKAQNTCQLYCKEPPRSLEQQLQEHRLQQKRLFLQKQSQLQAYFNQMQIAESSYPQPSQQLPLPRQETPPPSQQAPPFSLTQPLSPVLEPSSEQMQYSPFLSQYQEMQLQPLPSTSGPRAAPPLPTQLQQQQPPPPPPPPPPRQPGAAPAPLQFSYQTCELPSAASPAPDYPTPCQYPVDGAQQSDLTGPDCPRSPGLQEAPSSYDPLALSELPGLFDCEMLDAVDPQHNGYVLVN

Sample 1
SMILES: CC(C)N(CCC(=O)c1ccc2ccccc2c1)Cc1ccccc1
Read-out: enzyme activity
Mode: inhibitor
Tested at: 0.5 µM
Reference: control
It gave 103% for remaining activity (Serine/threonine-protein kinase SIK2 (SIK2, Homo sapiens, UniProt Q9H0K1)).
Ephrin type-A receptor 6 (EPHA6, Homo sapiens, UniProt Q9UF33) — remaining activity: 93.3%.
The remaining activity was 95.1% (Ribosomal protein S6 kinase alpha-3 (RPS6KA3, Homo sapiens, UniProt P51812)).
For Serine/threonine-protein kinase PAK 1 (PAK1, Homo sapiens, UniProt Q13153): remaining activity read 98.3%.
For Muscle, skeletal receptor tyrosine-protein kinase (MUSK, Homo sapiens, UniProt O15146): remaining activity read 112%.
For Calcium/calmodulin-dependent protein kinase type 1 (CAMK1, Homo sapiens, UniProt Q14012): remaining activity read 104%.
Vascular endothelial growth factor receptor 1 (FLT1, Homo sapiens, UniProt P17948) — remaining activity: 86%.
For Casein kinase I isoform epsilon (CSNK1E, Homo sapiens, UniProt P49674): remaining activity read 96.1%.
For Tyrosine-protein kinase Tec (TEC, Homo sapiens, UniProt P42680): remaining activity read 115%.
Dual specificity protein kinase CLK2 (CLK2, Homo sapiens, UniProt P49760) — remaining activity: 96.3%.
For Insulin-like growth factor 1 receptor (IGF1R, Homo sapiens, UniProt P08069): remaining activity read 107%.
Dual specificity protein kinase CLK1 (CLK1, Homo sapiens, UniProt P49759) — remaining activity: 109%.
Cyclin-dependent kinase 2, with cyclin E (CDK2, Homo sapiens, UniProt P24941) — remaining activity: 89.2%.
It gave 103% for remaining activity (SRSF protein kinase 1 (SRPK1, Homo sapiens, UniProt Q96SB4)).
For Tyrosine-protein kinase JAK1 (JAK1, Homo sapiens, UniProt P23458): remaining activity read 112%.
Tyrosine-protein kinase receptor TYRO3 (TYRO3, Homo sapiens, UniProt Q06418) — remaining activity: 98.9%.
For Serine/threonine-protein kinase Sgk2 (SGK2, Homo sapiens, UniProt Q9HBY8): remaining activity read 101%.
The remaining activity was 122% (Protein kinase C theta type (PRKCQ, Homo sapiens, UniProt Q04759)).
For Mitogen-activated protein kinase kinase kinase 20 (MAP3K20, Homo sapiens, UniProt Q9NYL2): remaining activity read 90.5%.
The remaining activity was 97.6% (Casein kinase I isoform delta (CSNK1D, Homo sapiens, UniProt P48730)).

Sample 2
Cell line: HaCaT
Tested at: 100 µM
Time: 36 h
For `OC(CCCN1CCCCC1)(c1ccccc1)c1ccccc1`, the viability was 72.6%.
`NC(N)=Nc1nc(CSCCC(N)=NS(N)(=O)=O)cs1` gave a viability of 94.1%.
For `CC(=O)O[C@H]1Cc2ccccc2N(C(N)=O)c2ccccc21`, the viability was 96.1%.
`O=C(CS(=O)(=O)Cc1ccccc1)N1CCOCC1` has a viability of 100%.
For `COC(=O)c1ccccc1O`, the viability was 87%.
`COc1ccc([C@@H]2Sc3ccccc3N(CCN(C)C)C(=O)[C@@H]2OC(C)=O)cc1` has a viability of 40.7%.
`CCCS(=O)(=O)Nc1ccc(F)c(C(=O)c2c[nH]c3ncc(-c4ccc(Cl)cc4)cc23)c1F` gave a viability of 7.05%.
For `CC(=O)c1ccc(O)c(C(=O)O)c1`, the viability was 49.5%.
`Cc1c(N(C)CS(=O)(=O)O)c(=O)n(-c2ccccc2)n1C` has a viability of 102%.
`O=C(O)CCC(=O)Nc1ccc(S(=O)(=O)Nc2nccs2)cc1` has a viability of 97.2%.
`O=C(O)c1ccc(-n2nc(-c3ccccc3O)nc2-c2ccccc2O)cc1` gave a viability of 44%.
`CC1=NN(c2ccccc2)C(=O)C1` gave a viability of 56.9%.

Sample 3
SMILES: O=C(Nc1cnc(Oc2ccc(F)cc2)nc1)N1CCc2ncccc2[C@@H]1c1ccc(F)cc1
Tested at: 1 µM
Death-associated protein kinase 2 (DAPK2, Homo sapiens, UniProt Q9UIK4); cell-free assay, competition with immobilised ligand — remaining binding: 91%.
It gave 100% for remaining binding (Tyrosine-protein kinase Mer (MERTK, Homo sapiens, UniProt Q12866); cell-free assay, competition with immobilised ligand).
The remaining binding was 100% (Cyclin-dependent kinase 5 (CDK5, Homo sapiens, UniProt Q00535); cell-free assay, competition with immobilised ligand).
It gave 87% for remaining binding (Serine/threonine-protein kinase PLK3 (PLK3, Homo sapiens, UniProt Q9H4B4); cell-free assay, competition with immobilised ligand).
It gave 100% for remaining binding (Tyrosine-protein kinase ABL1, phosphorylated (ABL1, Homo sapiens, UniProt P00519, F317I); binding).
Membrane-associated tyrosine- and threonine-specific cdc2-inhibitory kinase (PKMYT1, Homo sapiens, UniProt Q99640); cell-free assay, competition with immobilised ligand — remaining binding: 80%.
It gave 91% for remaining binding (Serine/threonine-protein kinase pim-1 (PIM1, Homo sapiens, UniProt P11309); cell-free assay, competition with immobilised ligand).
The remaining binding was 92% (Mitogen-activated protein kinase 3 (MAPK3, Homo sapiens, UniProt P27361); cell-free assay, competition with immobilised ligand).
It gave 82% for remaining binding (cAMP-dependent protein kinase catalytic subunit alpha (PRKACA, Homo sapiens, UniProt P17612); cell-free assay, competition with immobilised ligand).
It gave 90% for remaining binding (Mitogen-activated protein kinase kinase kinase 7 (MAP3K7, Homo sapiens, UniProt O43318); cell-free assay, competition with immobilised ligand).
The remaining binding was 99% (ALK tyrosine kinase receptor (ALK, Homo sapiens, UniProt Q9UM73); cell-free assay, competition with immobilised ligand).
Vascular endothelial growth factor receptor 3 (FLT4, Homo sapiens, UniProt P35916); cell-free assay, competition with immobilised ligand — remaining binding: 96%.
The remaining binding was 92% (Serine/threonine-protein kinase 17B (STK17B, Homo sapiens, UniProt O94768); cell-free assay, competition with immobilised ligand).
It gave 84% for remaining binding (Mitogen-activated protein kinase kinase kinase 5 (MAP3K5, Homo sapiens, UniProt Q99683); cell-free assay, competition with immobilised ligand).
Bone morphogenetic protein receptor type-1A (BMPR1A, Homo sapiens, UniProt P36894); binding, competition with immobilised ligand — remaining binding: 100%.

Sample 4
Cell line: mouse MPNST tumor cells
Method: high-content nuclear imaging
Measured: cell number
Tested at: 10 µM
Time: 12 h
Notes: mean of 2 replicates
Reference: plate mean
Reading: higher = more cells
The nuclei count of `O=c1[nH]c(=O)n(C2CCCO2)cc1F` (centres unmarked) is reported as 1.36 z-score.
The nuclei count of `CCN(CC)CCCC(C)Nc1nc(C)cc(Nc2ccc3nc(C)cc(N)c3c2)n1` (centres unmarked) is reported as 1.71 z-score.
`CC(C)C(=O)Nc1ccc([N+](=O)[O-])c(C(F)(F)F)c1` has a nuclei count of -0.331 z-score and 1.2 z-score and 0.539 z-score.
`Cc1cc2c(cc1C1(c3ccc(C(=O)O)cn3)CC1)C(C)(C)CCC2(C)C` has a nuclei count of 1.27 z-score.
`OC(c1cc(C(F)(F)F)nc2c(C(F)(F)F)cccc12)C1CCCCN1` (centres unmarked) has a nuclei count of -6.17 z-score.
For `Nc1nc(Cl)nc2c1ncn2[C@@H]1O[C@H](CO)[C@@H](O)[C@H]1O`, the nuclei count was 0.697 z-score.
`c1ccc(C2CN3CCSC3=N2)cc1` (centres unmarked) gave a nuclei count of 1.47 z-score.
With `O=C(O)c1cc(-c2ccc(F)cc2F)ccc1O` the nuclei count was 1.16 z-score.
The nuclei count of `O=C(Nc1cccc(Br)c1)c1cccc(S(=O)(=O)N2CCCCCC2)c1` is reported as 1.54 z-score.
`CN1Cc2c(N)cccc2C(c2ccccc2)C1` (centres unmarked) gave a nuclei count of 3.13 z-score and 1.47 z-score.
With `N[C@@H]1CCCCN(c2c(F)cc3c(=O)c(C(=O)O)cn(C4CC4)c3c2Cl)C1` the nuclei count was 0.485 z-score.
With `COc1ccc([C@@H]2CC(=O)c3c(O)cc(O[C@@H]4O[C@H](CO[C@@H]5O[C@@H](C)[C@H](O)[C@@H](O)[C@H]5O)[C@@H](O)[C@H](O)[C@H]4O)cc3O2)cc1O` the nuclei count was -0.499 z-score.
